Measurements gathered from unrelated publications.
Each numbered part is a random draw from the data of one study; scales do not carry over between parts. Positions count from the first letter of the parent shown.

Sample 1 — method: DHFR PCA, deep sequencing; sample: yeast; added: (+)-ABA 200 µM; reference: wild-type fitted maximum; reading: higher = stronger binding
Target: ABI1, truncated, D143A, DHFR fusion (Arabidopsis thaliana)
Setting: methotrexate growth selection, single substitutions
Starting sequence: PYL1, truncated, DHFR fusion (Arabidopsis thaliana); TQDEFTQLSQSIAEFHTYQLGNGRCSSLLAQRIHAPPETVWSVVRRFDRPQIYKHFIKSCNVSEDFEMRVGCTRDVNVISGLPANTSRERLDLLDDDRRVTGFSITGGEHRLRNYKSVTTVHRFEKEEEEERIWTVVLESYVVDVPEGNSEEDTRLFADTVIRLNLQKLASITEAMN; partner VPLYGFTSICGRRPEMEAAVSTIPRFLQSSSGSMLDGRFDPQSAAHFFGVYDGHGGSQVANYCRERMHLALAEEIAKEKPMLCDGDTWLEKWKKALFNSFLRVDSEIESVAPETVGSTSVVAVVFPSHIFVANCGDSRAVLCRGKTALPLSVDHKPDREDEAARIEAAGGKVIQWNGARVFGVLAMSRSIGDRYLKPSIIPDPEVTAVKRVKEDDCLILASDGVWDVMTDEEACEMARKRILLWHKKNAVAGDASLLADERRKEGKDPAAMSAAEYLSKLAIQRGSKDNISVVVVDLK
| Change | relative binding score [%] |
| --- | --- |
| E67Q | 97.5 |
| P36C | 85.7 |
| N177D | 90.5 |
| Q167R | 104 |
| S171N | 99.9 |
| L164N | 86.2 |
| F157P | -0.441 |
| I162P | 4.98 |
| S140M | 5.26 |
| E139M | 85.3 |
| K116F | 31.9 |
| F5N | 82 |
| S26D | 62.4 |

Sample 2 — method: protein-binding microarray; form: double-stranded DNA, one strand shown; sample: in vitro; tested at: 0.8 µM; setting: whole 60-bp probe, no competitor; reading: higher = stronger binding; constant ends, left off below: … GTCTTGATTCGCTTGACGCTGCTG
Target: Centromere-binding protein 1, full length, N-terminal tag (CBF1, Saccharomyces cerevisiae, UniProt P17106, residues 1-351)
Chain of UniProt P17106 (whole entry, looked up): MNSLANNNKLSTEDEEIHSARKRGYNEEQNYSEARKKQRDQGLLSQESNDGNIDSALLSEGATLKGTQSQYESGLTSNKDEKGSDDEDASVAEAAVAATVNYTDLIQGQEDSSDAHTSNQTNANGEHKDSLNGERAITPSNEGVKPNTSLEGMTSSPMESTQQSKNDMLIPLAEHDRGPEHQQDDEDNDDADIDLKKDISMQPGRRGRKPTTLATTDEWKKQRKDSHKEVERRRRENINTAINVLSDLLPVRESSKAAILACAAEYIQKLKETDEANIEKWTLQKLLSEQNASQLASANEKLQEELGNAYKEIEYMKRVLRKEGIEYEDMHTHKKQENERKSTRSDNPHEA
| Oligonucleotide | fluorescence intensity |
| --- | --- |
| CTAGAATTAAGAGAGCACACGAAGTTACTGCACTTC | 498 a.u. |
| CTATTAAAACATTGTGACCCAAATATCACAAATTTC | 667 a.u. |
| CTAACCAGCGCCCATCACGATACCTTAAATAGTTTC | 944 a.u. |
| CTATTCACAACGTATTTCATGACATACTTATTGTTC | 550 a.u. |
| CTACTTATTACTGTCGGCGTGCCATCCTTTTCTTTC | 600 a.u. |
| GAAAATATGAAAACTCACATGCCTTCTGTTTCTTAG | 559 a.u. |
| GAACTAAATATTGAACACGTTAAAAATAAGTTCTAG | 610 a.u. |
| GAAAGTGACTAGTGACTGGTGACGACATGAGCCTAG | 545 a.u. |
| GAACAGATTCCCGCGGACGTGGGAAGGAAAAAATAG | 511 a.u. |
| GAAGGTGTTCAAAACCACGTTCATCACTCGGTATAG | 532 a.u. |
| GAAATGACTCCATAAAACGTGAAGCAGCAGCTATAG | 532 a.u. |
| GAATATTATTCCAACCATCATGTGTAAGCCAAATAG | 712 a.u. |
| GAAATACTTTTAAAAGACCTGATGATGATAAATTAG | 629 a.u. |
| GAATGACTCAAGTGTCACGTGCATCAGTTTTTCTAG | 13300 a.u. |
| CTAAACCGCCTTTGTCACCCCATCCGGTAAGTATTC | 497 a.u. |
| TGTACGAAGCTATTACACGTGATTATAGTAGTTAGG | 7920 a.u. |
| CTAGGGGCATATTGACGCGTGGAAGAATAGAAGTTC | 570 a.u. |
| TGTACGAAGCTATATGGTCAGATTATAGTAGTTAGG | 558 a.u. |
| GAAGCAAAAGTTCATATGATGCTATCTCCCGCTTAG | 473 a.u. |
| CTAAATCATTCGTGCCTCGTGATATTGAGAAGATTC | 1420 a.u. |

Sample 3 — method: RNA Bind-n-Seq; form: RNA; sample: in vitro; tested at: 365 nM; reference: no-protein control; reading: higher = stronger binding
Target: RNA binding protein fox-1 homolog 2, RRM domain, GST-SBP tag (RBFOX2, Homo sapiens, UniProt O43251-10, residues 100-194)
Setting: natural RNA segment, single round, ends assumed
Constant ends, left off below: GGGAGUUCUACAGUCCGACGAUC … UGGAAUUCUCGGGUGCCAA
Target sequence (chain): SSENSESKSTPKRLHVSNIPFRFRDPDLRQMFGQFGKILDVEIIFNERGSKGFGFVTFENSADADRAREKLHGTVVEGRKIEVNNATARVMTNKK
| Oligonucleotide | RBNS enrichment (R) |
| --- | --- |
| CCUUUCUUCACACUCACAUUUACCAAUGACUCUGCUCCGUUUUUGGAGCAGACUGUUUUAAGUUGCUCAGGAGCCUGAUGGAACCAUGAACCGAGACUCUUCUCUGUUUC | 0.632 |
| UUGUUUUAACAUUUUUUUCAAAGUAUUUAGGUAAUGAUGUAUUAACUUCACAUUCAGAUUUAUGUUCCAUUUCUUUUGACUGAGAAAAGUUGAACGGUAUGCAUGGUGAA | 4.96 |
| AAAGGGACCUUCAAAGUGAAGACUGCCUUGUCCCGCAGCUCCUUCUGGCUUAGAUUGAAAAAUGGGCUUCCUAAUGGGUUAAAUCCUUUAAAACAAGGAGUUGUGGGGGA | 0.262 |
| ACCUUGGAGGAGAAAGUAAUUUCUAAAUAUACAGAGAGGUAACUUGACUAUAUAUGUUGCAUCCUGUGCCUCCCUUCAUAUUAAUAUUUGAUAAAGAUUUUAAUUUAUGU | 0.353 |
| UCUGGAUUCCUUAUUUGAUUUAUUUAACCUAAUUAUAUUCUAAUAUUGCAAAUAUUACCAUAAGUGGGUAAAAGUAAAAUUCCUCUUCUGAAAAUGUGUCCUGUGCUUUU | 0.659 |
| UCUUCCAGGCCAAAGUAUGUUGCUGCUUCCUGUCUCCACUGGUCCCCACCUACCCUGGCACUUGCCCUGUGACAUGAUGGGUGAGGCUGUGGGGGAACUCAGUGGCAGGA | 0.464 |
| CCCUCACCUCCUGCCAAGGGGAGAGAUCUAUUUCUACUACACGCUGUCUCUCCCAGUACAUCCCCGGAUUGGUGUGGGUAGAUAGGCCAACGUAUGGUGAUCUCCCCUAG | 0.315 |
| GACAGCAACAAGAUUUUAAUCACCUGGUCACCAGACCCUCACGGCCCAUAUCCAAUUCGAAUUUCAGAAAUUUCUCUGUUUGCUUUAAAUAACUCUUUACAAAUAAGGGU | 0.557 |
| CAAACAGUACAUCUGGAGCCUGGAGAUAUCCUCAGGAAGCACAUCUGUAGUGCACUCCCAGCAGGCCAUGGACUAGUCACUAACCCCACACUCAAAGGGGCAUGGGUGGU | 0.755 |
| AAGAAAUACAGAGUAAAGCUAAAAUAAUUGUUUACCAAUAUUUUGAGAGGUAACAAAUAGGGAGAUACGGGUUGAGACUGCAUAAAAAACGUACUGCUGGUUGAAUAUCU | 1.05 |
| CUAACAAUCAGCAGAUGGGAGUGUGGGUUCCUUAUGUCACAGGCUGUGCCCCAGCGGUCACUCACAACAUAGGUCUGUUGAGUCUUUUUUAAAUGCACUAGGAGCCAACU | 0.33 |
| UAAUGGGGCCUAUGACUUGAAUGAAUAGAAAUGAAUAAGCUGGUGUUUGUUUUUUCAAAAUGGAAGUAAUUUAGAUUUGUUCUCCUCAUACAUAAAAUGAUUUUAGUUCA | 0.605 |

Sample 4 — method: RNA Bind-n-Seq; form: RNA; sample: in vitro; tested at: 1 µM; setting: whole 134-nt RNA, ends assumed; added: 150 mM KCl; reference: input library; reading: higher = stronger binding
Target: Ras GTPase-activating protein-binding protein 1, C-terminal RGG region (G3BP1, Homo sapiens, UniProt Q13283)
Chain of UniProt Q13283 (whole entry, looked up): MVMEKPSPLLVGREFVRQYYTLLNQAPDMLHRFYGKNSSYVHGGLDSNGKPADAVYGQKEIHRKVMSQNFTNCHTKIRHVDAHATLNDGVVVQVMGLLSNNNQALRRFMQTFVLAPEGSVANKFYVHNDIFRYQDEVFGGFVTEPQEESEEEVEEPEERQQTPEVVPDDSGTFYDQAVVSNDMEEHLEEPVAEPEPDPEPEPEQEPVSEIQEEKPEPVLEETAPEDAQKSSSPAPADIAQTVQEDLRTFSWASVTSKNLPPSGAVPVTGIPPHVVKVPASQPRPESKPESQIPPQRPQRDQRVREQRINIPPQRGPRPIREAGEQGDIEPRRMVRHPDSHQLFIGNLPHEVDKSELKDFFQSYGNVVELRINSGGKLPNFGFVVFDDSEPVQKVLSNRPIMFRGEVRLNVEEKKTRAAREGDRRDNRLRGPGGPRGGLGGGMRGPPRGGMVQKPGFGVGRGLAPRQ
Constant ends, left off below: GGGAGUUCUACAGUCCGACGAUC … UGGAAUUCUCGGGUGUCAAGG
| Oligonucleotide | log2 enrichment |
| --- | --- |
| CUGUGCUACACAUCGUAUGUACCGAAUCGGCCCCCCCGGGGCCCCCCCGGGGCCCCCCCGGAAAGUAUUAUGUUACGCCGUUCGGAUCUG | -1.76 |
| GUCCUGUGCUACACAUCGUAUGUACCGAAUCGGGAAAAAGGGAAAGGGUUUUUUUGGGAAAGUAUUAUGUUACGCCGUUCGGAUCUGCAC | -0.23 |
| CAAGUCCUGUGCUACACAUCGUAUGUACCGAAUCGGGCCCCGGCCCCGGGCCCCGGAAAGUAUUAUGUUACGCCGUUCGGAUCUGCACUU | -1.87 |
| AAGUCCUGUGCUACACAUCGUAUGUACCGAAUCGGGAAAGGGUUUUUGGGUUUGGGAAAGUAUUAUGUUACGCCGUUCGGAUCUGCACUU | 0.964 |
| GGUGUUGCUGGAAGAAGCCAAGGAUUUGCUCUCUGACUGGCUGGAUUCUACACUUGGCUGUGAUGUCACUGACAAUUCCAUCUUCUCCAA | 0.338 |
| AAAAGACAACACGCACCCACACAGACACAGAGGGAAGGGGUUGGGAUGGGGACAGGGUGCACAGCAGGGCGGGGUAGGACCCCAGCCCCU | 0.00625 |
| UAACUUUAGAGGAGGAUCUGAUGGAUAUGGCAGUGGACGUGGAUUUGGGGAUGGCUAUAAUGGGUAUGGAGGAGGACCUGGGGGUGGCAA | -0.682 |
| ACCAUGCAGGUGGGCAUCUUUGGGAAGUGGGGCAAGGGGGGGAUAGGGAGGCGGGUAACACUUUGGGAACAGGUGGUCCCAGGUCGUUUC | 2.03 |
| UCCUGUGCUACACAUCGUAUGUACCGAAUCGGCCCCCCGGGCCCCCCGGGGCCCCCCGGGAAAGUAUUAUGUUACGCCGUUCGGAUCUGC | -1.56 |
| AGUCCUGUGCUACACAUCGUAUGUACCGAAUCGGGGUGGGGAAAGGGGAAAAAGGGGAAAGUAUUAUGUUACGCCGUUCGGAUCUGCACU | 1.13 |
| CAAGUCCUGUGCUACACAUCGUAUGUACCGAAUCGGGGUGGGGAAAGGGGUGGGGAAAGUAUUAUGUUACGCCGUUCGGAUCUGCACUUC | 2.69 |
| UCCUGUGCUACACAUCGUAUGUACCGAAUCGGGUUUUUUUGGGUUUGGGUUUUUUUGGGAAAGUAUUAUGUUACGCCGUUCGGAUCUGCA | -0.366 |
| UUAAAGUAGAGGAACAAAAAGAAGAACAGAAGGAGUUAGAGAAAUCUGAAAAAGAAGAGGAUGAGGAUGAUGAUAGGAAAUCUGAAGACG | -1.28 |
| UCCUGUGCUACACAUCGUAUGUACCGAAUCGGCCCCCCGGGGCCCCCCGGGGCCCCCCGGAAAGUAUUAUGUUACGCCGUUCGGAUCUGC | -1.37 |

Excerpt of the above (sample 2):
| Oligonucleotide | fluorescence intensity |
| --- | --- |
| TGTACGAAGCTATATGGTCAGATTATAGTAGTTAGG | 558 a.u. |
| GAACAGATTCCCGCGGACGTGGGAAGGAAAAAATAG | 511 a.u. |
| GAATATTATTCCAACCATCATGTGTAAGCCAAATAG | 712 a.u. |
| GAAGCAAAAGTTCATATGATGCTATCTCCCGCTTAG | 473 a.u. |
| GAAAGTGACTAGTGACTGGTGACGACATGAGCCTAG | 545 a.u. |
| GAATGACTCAAGTGTCACGTGCATCAGTTTTTCTAG | 13300 a.u. |
| CTAAATCATTCGTGCCTCGTGATATTGAGAAGATTC | 1420 a.u. |
| CTAACCAGCGCCCATCACGATACCTTAAATAGTTTC | 944 a.u. |
